Measurements of several laboratories.
Protocols differ between the studies behind these lines. Numbers after ± are the reported error.
gag-pol K653T reverse transcriptase: Gag-Pol polyprotein, reverse transcriptase (gag-pol, Human immunodeficiency virus type 1 group M subtype B, UniProt P04585, K653T)
gag-pol protease: Gag-Pol polyprotein, protease (gag-pol, Human immunodeficiency virus type 1 group M subtype B, UniProt P04585)

`Cc1cn([C@H]2C=C[C@@H](COP(=O)(O)OP(=O)(O)OP(=O)(O)O)O2)c(=O)[nH]c1=O` gave an IC50 of 7910 ± 1220 nM (Gag-Pol polyprotein, reverse transcriptase (gag-pol, Human immunodeficiency virus type 1 group M subtype B, UniProt P04585, K653A); inhibitor; HIV-1).
`Cn1cnc(Cn2c(=O)[nH]/c(=N\c3cc4cn(C)nc4cc3Cl)n(Cc3cc(F)c(F)cc3F)c2=O)n1`: “treatment-related TEAE, Severe severity” 0% (human, mild renal impairment; oral, 375 mg).
With `O=C(O[C@@H]1Cc2c(O)cc(O)cc2O[C@@H]1c1cc(O)c(O)c(O)c1)c1cc(O)c(O)c(O)c1` the Kd was 1430 nM (Spike glycoprotein (Severe acute respiratory syndrome coronavirus 2, UniProt P0DTC2); binding).
With `CC(=O)O[C@@H]1[C@H](N)[C@@H](OP(=O)(O)O)[C@@]2(C(=O)O)CS[C@@](O)(C(N)=O)[C@@H]1O2` the Kd was 1640 ± 450 nM (DNA-directed RNA polymerase subunit beta' / DNA-directed RNA polymerase subunit beta (rpoC/rpoB, Escherichia coli, UniProt P0A8T7+P0A8V2, R933A); binding to elongation complex, 6-MI fluorescence titration; β′R933A RNAP; riboside RNA 3′-end adenine).
With `CC[C@H](C)[C@H](NC(=O)[C@H](CC(C)C)NC(=O)[C@@H](NC(=O)[C@@H](NC(=O)[C@H](CC(C)C)NC(=O)[C@H](CC(=O)O)NC(=O)[C@H](CC(C)C)NC(=O)[C@H](Cc1ccccc1)NC(=O)[C@H](Cc1c[nH]c2ccccc12)NC(=O)[C@@H](NC(=O)[C@H](CC(C)C)NC(=O)[C@H](Cc1ccccc1)NC(=O)[C@H](Cc1ccc(O)cc1)NC(=O)[C@H](Cc1c[nH]c2ccccc12)NC(=O)[C@H](CC(C)C)NC(=O)[C@H](CCCCN)NC(=O)[C@H](Cc1c[nH]c2ccccc12)NC(=O)[C@H](Cc1c[nH]c2ccccc12)NC(=O)[C@H](CCCCN)NC(=O)[C@H](CCCCN)NC(=O)[C@H](CCCCN)NC(=O)[C@@H](N)CCCCN)C(C)C)[C@@H](C)CC)[C@@H](C)CC)C(=O)N[C@@H](CC(C)C)C(=O)N[C@@H](CC(C)C)C(=O)N[C@@H](CC(C)C)C(=O)N[C@@H](Cc1c[nH]c2ccccc12)C(=O)N[C@@H](Cc1c[nH]c2ccccc12)C(=O)N[C@@H](CCCCN)C(=O)N[C@@H](CCCCN)C(=O)N[C@@H](CCCCN)C(=O)N[C@@H](CCCCN)C(=O)O` the EC50 was 3300 ± 200 nM (Latent membrane protein 1, transmembrane domain 5 (Human herpesvirus 4, UniProt P03230); TMD5 self-association disruption, fluorescence dequenching; Epstein-Barr virus, C14 betaine micelles; pH 7.4).
The IC50 of `C[C@H](Cn1cnc2c(N)ncnc21)OCP(=O)(O)O` is reported as 1222 ± 1.16 nM (gag-pol K653T reverse transcriptase; inhibitor; HIV-1).
For `CNC(=O)[C@@H](NC(=O)[C@H](CC(C)C)[C@H](O)C(=O)NO)C(C)(C)C`, “remaining fibrinogen Bβ chain” read 0.842 (human fibrinogen; SDS-PAGE; Daboia russelii; concentration not given, unit not given, together with: MP venom; baseline: untreated fibrinogen).
For `CC[C@H](C)[C@H](NC(=O)[C@H](CC(C)C)NC(=O)[C@H](CO)NC(=O)[C@H](Cc1c[nH]cn1)NC(=O)[C@@H](NC(=O)[C@H](CC(C)C)NC(=O)[C@H](CO)NC(=O)[C@@H](NC(=O)[C@H](Cc1ccc(O)cc1)NC(=O)[C@H](CC(N)=O)NC(=O)[C@H](CC(N)=O)NC(=O)[C@@H](NC(=O)[C@H](CCC(=O)O)NC(=O)[C@H](CCCNC(=N)N)NC(=O)[C@H](CC(=O)O)NC(=O)[C@H](Cc1c[nH]c2ccccc12)NC(=O)[C@H](CCC(=O)O)NC(=O)[C@H](CCSC)NC(=O)[C@H](Cc1c[nH]c2ccccc12)NC(C)=O)[C@@H](C)CC)[C@@H](C)O)[C@@H](C)CC)C(=O)N[C@@H](CCC(=O)O)C(=O)N[C@@H](CCC(=O)O)C(=O)N[C@@H](CO)C(=O)N[C@@H](CCC(N)=O)C(=O)N[C@@H](CC(N)=O)C(=O)N[C@@H](CCC(N)=O)C(=O)N[C@@H](CCC(N)=O)C(=O)N[C@@H](CCC(=O)O)C(=O)N[C@@H](CCCCN)C(=O)N[C@@H](CC(N)=O)C(=O)N[C@@H](CCC(=O)O)C(=O)N[C@@H](CCC(N)=O)C(=O)N[C@@H](CCC(=O)O)C(=O)N[C@@H](CC(C)C)C(=O)N[C@@H](CC(C)C)C(=O)NCC(=O)N[C@@H](CO)C(=O)NCC(=O)N[C@@H](CSCC(=O)O[C@H]1CC[C@@]2(C)C(=CC[C@H]3[C@@H]4CC[C@H]([C@H](C)CCCC(C)(C)O)[C@@]4(C)CC[C@@H]32)C1)C(N)=O`, the Kd was 7100 ± 5300 nM (membrane binding, di-8-ANEPPS dipole potential; POPC:cholesterol:sphingomyelin LUVs; ratio 1:1:1).
The Ki of `COc1ccc(S(=O)(=O)N(CC(C)C)C[C@@H](O)[C@H](Cc2ccccc2)NC(=O)O[C@@H]2CCC[C@]23CCO[C@H](c2cccc(OC)c2)C3)cc1` is reported as 17.4 nM (gag-pol protease; enzyme activity, inhibitor).
`Nc1ncnc2c([C@@H]3N[C@H](CO)[C@@H](O)[C@H]3O)c[nH]c12` — result for “supernatant virus titre”: 0 PFU/mL (Marburg marburgvirus; virus production; HeLa, Musoke; 25 µM).
With `Cc1cn([C@H]2C[C@H](N=[N+]=[N-])[C@@H](CO[P@](=O)(O)O[P@](=O)(O)OP(=O)(O)O)O2)c(=O)[nH]c1=O` the IC50 was 218.9 ± 1.28 nM (gag-pol K653T reverse transcriptase; inhibitor; HIV-1).
With `COc1ccc(S(=O)(=O)N(CC(C)C)C[C@@H](O)[C@H](Cc2ccccc2)NC(=O)O[C@@H]2CCC[C@]23CCO[C@H](c2ccccc2OC)C3)cc1` the Ki was 2850 nM (gag-pol protease; inhibitor, fluorometric; HIV-1).
`Clc1cc(N2C[C@@H]3CN[C@@H]3C2)cnc1Cl` has a Ki of 1.3 ± 0.4 nM (Neuronal acetylcholine receptor; alpha4/beta2 (Rattus norvegicus, UniProt P09483+P12390); rat).
The Kd of `NCCc1c(SSc2[nH]c3cc(Br)ccc3c2CCN)[nH]c2cc(Br)ccc12` is reported as 1600 ± 700 nM (Potassium voltage-gated channel subfamily A member 4 (KCNA4, Homo sapiens, UniProt P22459); inactivation time constant, whole-cell patch clamp; CHO-K1).
For `COc1ccc(S(=O)(=O)N(CC(C)C)C[C@@H](O)[C@H](Cc2ccccc2)NC(=O)O[C@H]2CCC[C@@]23CCO[C@@H](c2ccccc2)C3)cc1`, the Ki was 1340 nM (gag-pol protease; enzyme activity, inhibitor).
`CC[C@H](C)[C@H](NC(=O)[C@H](CC(C)C)NC(=O)[C@H](Cc1c[nH]c2ccccc12)NC(=O)[C@H](CCC(N)=O)NC(=O)[C@@H](NC(=O)[C@H](Cc1ccccc1)NC(=O)[C@H](C)NC(=O)[C@H](CCCCNC(=O)COCCOCCNC(=O)COCCOCCNC(=O)CC[C@H](NC(=O)CCCCCCCCCCCCCCCCCCC(=O)O)C(=O)O)NC(=O)[C@H](CCC(N)=O)NC(=O)[C@H](C)NC(=O)[C@@H](NC(=O)[C@H](CCCCN)NC(=O)[C@H](CC(=O)O)NC(=O)[C@H](CC(C)C)NC(=O)C(C)(C)NC(=O)[C@@H](NC(=O)[C@H](CO)NC(=O)[C@H](Cc1ccc(O)cc1)NC(=O)[C@H](CC(=O)O)NC(=O)[C@H](CO)NC(=O)[C@@H](NC(=O)[C@H](Cc1ccccc1)NC(=O)[C@@H](NC(=O)CNC(=O)[C@H](CCC(=O)O)NC(=O)C(C)(C)NC(=O)[C@@H](N)Cc1ccc(O)cc1)[C@@H](C)O)[C@@H](C)O)[C@@H](C)CC)[C@@H](C)CC)C(C)C)C(=O)N[C@@H](C)C(=O)NCC(=O)NCC(=O)N1CCC[C@H]1C(=O)N[C@@H](CO)C(=O)N[C@@H](CO)C(=O)NCC(=O)N[C@@H](C)C(=O)N1CCC[C@H]1C(=O)N1CCC[C@H]1C(=O)N1CCC[C@H]1C(=O)N[C@@H](CO)C(N)=O`: “treatment-emergent adverse events” 16.7% (healthy human; 0.25 mg, single ascending dose).
With `COc1ccc(S(=O)(=O)N(CC(C)C)C[C@@H](O)[C@H](Cc2ccccc2)NC(=O)O[C@H]2CCC[C@]23CCO[C@H](c2cc(OC)cc(OC)c2)C3)cc1` the Ki was 976 nM (gag-pol protease; enzyme activity, inhibitor).
With `N[C@@H](C[C@]1(C(=O)O)C[C@H]2OC[C@@H](O)[C@@H](O)[C@H]2O1)C(=O)O` the Ki was 260 nM (Glutamate receptor ionotropic, kainate 3 (Rattus norvegicus, UniProt P42264, F446Y/T520A); ligand displacement, radioligand).

A few entries again:
For `CNC(=O)[C@@H](NC(=O)[C@H](CC(C)C)[C@H](O)C(=O)NO)C(C)(C)C`, “remaining fibrinogen Bβ chain” read 0.842 (human fibrinogen; SDS-PAGE; Daboia russelii; concentration not given, unit not given, together with: MP venom; baseline: untreated fibrinogen).
With `O=C(O[C@@H]1Cc2c(O)cc(O)cc2O[C@@H]1c1cc(O)c(O)c(O)c1)c1cc(O)c(O)c(O)c1` the Kd was 1430 nM (Spike glycoprotein (Severe acute respiratory syndrome coronavirus 2, UniProt P0DTC2); binding).
The Ki of `COc1ccc(S(=O)(=O)N(CC(C)C)C[C@@H](O)[C@H](Cc2ccccc2)NC(=O)O[C@@H]2CCC[C@]23CCO[C@H](c2cccc(OC)c2)C3)cc1` is reported as 17.4 nM (gag-pol protease; enzyme activity, inhibitor).
